# Experimental data of several laboratories.
# Parts stem from different laboratories: compare values within a part only.

# Series 1
# Target: POU domain, class 5, transcription factor 1, POU domain (Pou5f1, Mus musculus, UniProt P20263, residues 131-289)
# Sequence of UniProt P20263 (131-289, looked up): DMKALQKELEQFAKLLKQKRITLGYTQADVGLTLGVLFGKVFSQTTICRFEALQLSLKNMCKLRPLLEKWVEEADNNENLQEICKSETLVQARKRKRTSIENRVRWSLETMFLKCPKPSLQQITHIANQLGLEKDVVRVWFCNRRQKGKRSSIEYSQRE
# Method: Spec-seq
# Form: double-stranded DNA, one strand shown
# Medium: in vitro
# Tested at: not given
# Notes: whole probe, mean of replicates
# Reference: not given
# Reading: lower = stronger binding
# Shared flanks, not repeated: GAGTCGTCTCGTCAGCAC … CCGTAGAGCACTCAGGTC
Sequence,relative binding energy
GGCTTAAT,0.639 ln ratio
ATGCAAGA,-0.275 ln ratio
ATGCCTGC,0.768 ln ratio
ATCTCAAT,-0.156 ln ratio
ATCTACAT,-1.68 ln ratio
CGGCTAAT,0.854 ln ratio
GTTATAAT,0.374 ln ratio
ATCCGCAT,0.0422 ln ratio
GGTCTAAT,0.939 ln ratio
ATGCAACT,-0.156 ln ratio
ATAGCTAT,0.452 ln ratio
ATGCGGCG,0.693 ln ratio

# Series 2
# Target: Histone acetyltransferase KAT6A, winged helix 2, GST fusion (KAT6A, Homo sapiens, UniProt Q92794, residues 85-181)
# Method: protein binding microarray
# Form: double-stranded DNA, one strand shown
# Medium: in vitro
# Tested at: not given
# Notes: 8-mer, flanks averaged, mean of 2 arrays, mostly near background
# Reference: not given
# Reading: higher = stronger binding
# Target sequence (chain): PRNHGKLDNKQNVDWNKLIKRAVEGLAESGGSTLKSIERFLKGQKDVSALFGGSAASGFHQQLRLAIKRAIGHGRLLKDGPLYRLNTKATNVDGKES
Sequence,E-score
CCCGTATA,0.023
AGCATGAT,0.0306
ATTAGTAC,-0.133
AGCATACG,0.0616
CCCCCTGC,-0.000455
ATAGGAGC,-0.0687
CCTACAAA,0.0748
CTGCTGTC,0.0097
AAGAGGCA,0.155
CGAATTAC,-0.00852
ACGAAAGG,0.0181
ACCTGCGT,-0.035
GGCGCAAA,0.178
AAACATCA,-0.0783
AGTTTGTG,0.0666
CCAAGTAG,0.00226
GGAACGGA,-0.0278

# Series 3
# Target: Prothrombin, mature alpha-thrombin (F2, Homo sapiens, UniProt P00734)
# Method: aptamer microarray, sandwich
# Form: DNA with 2'F-ANA
# Medium: in vitro
# Tested at: 200 nM
# Notes: whole 15-mer aptamer, many near background
# With: Cy3 exosite-II aptamer, 400 nM
# Reading: higher = stronger binding
# Sequence: GGTTGGTGTGGTTGG
Modification,mean fluorescence intensity [a.u.]
2'F-ANA at 2 5 7 10 11 13,56.1
2'F-ANA at 2 3 4 5 7 13,103
2'F-ANA at 1 3 4 5 13 14 15,184
2'F-ANA at 7 8 9 11 13 14 15,187
2'F-ANA at 1 3 4 7 8 15,293
2'F-ANA at 5 10 11 13 15,51.7
2'F-ANA at 1 2 3 6 7,176
2'F-ANA at 1 2 3 5 6 7 9 10 14,248
2'F-ANA at 1 6 9 12 13 14 15,63.8
2'F-ANA at 2 3 4 7 8 9 11 12 13 15,560
2'F-ANA at 2 3 4 7 11 12 14,365

# Mixed results
Substance,target,assay,test system,conditions,how to read,endpoint,result
"PhoQ, residues 284 288 289 292 302 303 TNSAEL","PhoP, residues 12 14 15 18 19 LHATL (Escherichia coli, UniProt P23836)","Sort-seq, refers to: YFP reporter",E. coli,"PhoQ-PhoP variant library, with: 10 µM Mg2+","reference: high Mg2+ state, higher = stronger signaling",fold induction,24

# A few entries again (series 1):
Sequence,relative binding energy
ATGCCTGC,0.768 ln ratio
ATGCAACT,-0.156 ln ratio
ATCTCAAT,-0.156 ln ratio
ATAGCTAT,0.452 ln ratio
ATGCAAGA,-0.275 ln ratio
